# Measured values gathered from unrelated publications.
# A part holds a random share of what one study measured. ± gives the spread as reported.
# Chain of UniProt O95696 (whole entry, unmodified, looked up): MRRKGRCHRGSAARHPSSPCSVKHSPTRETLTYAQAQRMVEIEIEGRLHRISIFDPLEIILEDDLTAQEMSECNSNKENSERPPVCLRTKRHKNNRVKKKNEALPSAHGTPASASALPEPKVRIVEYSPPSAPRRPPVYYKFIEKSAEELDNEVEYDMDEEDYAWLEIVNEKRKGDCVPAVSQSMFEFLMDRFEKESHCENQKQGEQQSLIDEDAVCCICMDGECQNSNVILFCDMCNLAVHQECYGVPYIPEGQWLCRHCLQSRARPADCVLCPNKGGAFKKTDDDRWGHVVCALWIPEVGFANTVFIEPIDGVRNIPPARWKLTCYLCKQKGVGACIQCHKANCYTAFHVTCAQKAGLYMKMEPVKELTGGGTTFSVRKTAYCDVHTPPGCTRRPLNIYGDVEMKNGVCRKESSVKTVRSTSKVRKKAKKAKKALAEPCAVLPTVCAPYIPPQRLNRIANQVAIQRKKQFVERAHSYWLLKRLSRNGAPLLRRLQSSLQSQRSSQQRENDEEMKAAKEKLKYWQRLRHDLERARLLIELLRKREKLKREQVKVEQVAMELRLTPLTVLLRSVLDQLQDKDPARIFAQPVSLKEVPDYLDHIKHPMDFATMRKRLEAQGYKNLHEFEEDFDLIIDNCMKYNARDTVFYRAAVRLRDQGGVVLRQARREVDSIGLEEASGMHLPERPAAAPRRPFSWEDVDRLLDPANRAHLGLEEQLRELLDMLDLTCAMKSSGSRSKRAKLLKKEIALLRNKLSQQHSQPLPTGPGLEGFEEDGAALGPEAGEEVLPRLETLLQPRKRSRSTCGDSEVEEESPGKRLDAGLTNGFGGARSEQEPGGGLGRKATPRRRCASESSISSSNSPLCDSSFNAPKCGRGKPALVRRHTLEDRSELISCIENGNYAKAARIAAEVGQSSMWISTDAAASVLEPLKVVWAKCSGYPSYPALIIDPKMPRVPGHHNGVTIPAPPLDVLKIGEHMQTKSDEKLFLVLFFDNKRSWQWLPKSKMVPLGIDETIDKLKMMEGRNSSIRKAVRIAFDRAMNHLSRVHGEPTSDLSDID
# Chain of UniProt P34914 (whole entry, looked up): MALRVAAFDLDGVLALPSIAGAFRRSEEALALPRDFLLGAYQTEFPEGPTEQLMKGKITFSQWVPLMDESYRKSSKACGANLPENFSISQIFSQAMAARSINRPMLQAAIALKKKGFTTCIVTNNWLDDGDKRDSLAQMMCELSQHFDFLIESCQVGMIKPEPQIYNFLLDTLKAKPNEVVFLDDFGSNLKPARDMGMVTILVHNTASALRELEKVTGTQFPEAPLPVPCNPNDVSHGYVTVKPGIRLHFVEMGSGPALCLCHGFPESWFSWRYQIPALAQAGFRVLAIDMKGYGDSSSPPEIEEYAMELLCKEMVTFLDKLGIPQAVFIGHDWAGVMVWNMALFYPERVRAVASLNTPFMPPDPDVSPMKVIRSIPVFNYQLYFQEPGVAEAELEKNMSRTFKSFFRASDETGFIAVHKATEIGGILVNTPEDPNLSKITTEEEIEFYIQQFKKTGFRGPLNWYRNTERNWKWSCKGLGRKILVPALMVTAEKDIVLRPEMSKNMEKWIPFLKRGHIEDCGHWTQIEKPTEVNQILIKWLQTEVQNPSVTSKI

# Set 1
# SMILES: Cc1cc(OCc2nnc(SC3CCCC3)n2-c2cccnc2)ccc1-c1ccc(S(C)(=O)=O)cc1
cell line,CC50
NCI/ADR-RES,> 100 µM
Malme-3M,5.69 µM
UACC-62,6.9 µM

# Other studies, line by line
Structure (SMILES),tested on,test,system,conditions,quantity,value
N#Cc1ccc(-c2csc(CNC(=O)C34CC(CN(C(=O)COCCF)C3)C4)n2)cc1,,,"Sprague Dawley rats male, plasma","oral, 3 mg/kg",Cmax,2500 nM
CC[C@@H]1C(=O)N(C)c2cnc(Nc3ccc(C(=O)NC4CCN(C)CC4)cc3OC)nc2N1C1CCCC1,"BRD1 (Homo sapiens, UniProt O95696)","thermal stabilisation, thermal shift",,10 µM,ΔTm,-0.05 ± 0.15 °C
O=C(Nc1ccc(OC(F)(F)F)cc1)NC1CCN(c2c(NS(=O)(=O)Cc3ccccc3)c(=O)c2=O)CC1,"Ephx2 (Mus musculus, UniProt P34914)",,,,IC50,1.09 ± 0.0832 µM
